Measurements of several laboratories.
A part holds a random share of what one study measured. Changes are numbered by the printed parent chain.

Set 1
Target: Sal-like protein 4, full length isoform B (SALL4, Homo sapiens, UniProt Q9UJQ4-2, residues 1-616)
Method: universal PBM
Form: double-stranded DNA, one strand shown
Sample: in vitro
Tested at: not given
Notes: 8-mer, flanks averaged, mean of replicates
Reading: higher = stronger binding
Quantity: E-score
CCCAGGAA: -0.0682
CAGGTGCC: -0.265
CGCCATAG: -0.07
CTGAGCGA: -0.185
AATTTCAT: 0.308
AATGAGCA: 0.099
CGAAGACA: -0.21
GACGGAAC: -0.101

Set 2
Target: CREBRF, bZIP domain (human)
Method: DHFR protein complementation
Sample: yeast
Notes: single substitutions, most at no-binding floor
Baseline: wild-type JUN-FOS pair
Reading: higher = stronger binding
Quantity: binding fitness
Starting sequence: JUN, bZIP domain (human); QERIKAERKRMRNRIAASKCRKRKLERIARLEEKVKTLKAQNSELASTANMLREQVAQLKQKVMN; partner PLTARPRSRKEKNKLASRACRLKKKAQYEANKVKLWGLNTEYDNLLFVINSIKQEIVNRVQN
R53M: -1.56 natural log
E54H: -1.52 natural log
V35R: -1.54 natural log
E33R: -1.3 natural log
A57M: -1.24 natural log
T37K: -1.3 natural log
A46M: -1.44 natural log
A49Y: -1.47 natural log

Set 3
Target: Histone acetyltransferase KAT6A, winged helix 2, GST fusion (KAT6A, Homo sapiens, UniProt Q92794, residues 85-181)
Method: protein binding microarray
Form: double-stranded DNA, one strand shown
Sample: in vitro
Tested at: not given
Notes: 8-mer, flanks averaged, mean of 2 arrays, mostly near background
Baseline: not given
Reading: higher = stronger binding
Quantity: E-score
Target sequence (chain): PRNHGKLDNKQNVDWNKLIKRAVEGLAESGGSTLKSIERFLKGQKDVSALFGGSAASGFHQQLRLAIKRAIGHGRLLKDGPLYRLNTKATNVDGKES
ATCTGACA: -0.0595
GATGGGTA: -0.0731
CCGGAAGG: 0.264
GAGATAGA: 0.0323
ACGAATGC: -0.0802
CTCAATCC: 0.0634
CGACATGC: 0.0538
CCTTGCAG: 0.173

Other studies, line by line
Starting sequence: viral docking peptide; TSVRRALFTGGSD
V3I  normalised enrichment score (CCNF, cyclin fold, Cln2 fusion (human); yeast growth competition, sequencing; yeast; strong parent motif; baseline: not given, higher = stronger binding): 8.34
